Measured values of several laboratories.
Each numbered part is a random draw from the data of one study; scales do not carry over between parts.
UniProt Q92918, sequence (whole entry, looked up): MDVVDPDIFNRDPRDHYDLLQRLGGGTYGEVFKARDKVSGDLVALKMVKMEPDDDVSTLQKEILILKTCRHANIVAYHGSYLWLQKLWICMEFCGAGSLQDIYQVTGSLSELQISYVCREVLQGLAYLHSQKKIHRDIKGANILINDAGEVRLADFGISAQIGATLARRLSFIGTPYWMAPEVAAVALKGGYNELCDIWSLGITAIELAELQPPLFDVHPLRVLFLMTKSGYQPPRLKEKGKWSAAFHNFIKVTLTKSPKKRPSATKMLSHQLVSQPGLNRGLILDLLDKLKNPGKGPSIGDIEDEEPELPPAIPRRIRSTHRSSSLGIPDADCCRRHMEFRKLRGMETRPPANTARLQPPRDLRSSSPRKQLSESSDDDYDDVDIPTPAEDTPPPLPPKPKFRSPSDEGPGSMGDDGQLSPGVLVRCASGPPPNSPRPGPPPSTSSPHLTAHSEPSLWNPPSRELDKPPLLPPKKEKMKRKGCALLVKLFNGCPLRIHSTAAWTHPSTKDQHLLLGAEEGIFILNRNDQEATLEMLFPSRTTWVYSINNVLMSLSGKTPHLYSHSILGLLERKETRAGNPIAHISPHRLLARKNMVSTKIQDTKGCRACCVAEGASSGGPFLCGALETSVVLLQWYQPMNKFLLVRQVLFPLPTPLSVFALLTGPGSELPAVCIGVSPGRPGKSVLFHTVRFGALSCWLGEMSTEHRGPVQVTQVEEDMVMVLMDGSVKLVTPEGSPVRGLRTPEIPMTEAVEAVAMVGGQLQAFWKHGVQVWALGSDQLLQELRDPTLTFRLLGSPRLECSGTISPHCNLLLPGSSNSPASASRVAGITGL
UniProt Q05397, sequence (whole entry, looked up): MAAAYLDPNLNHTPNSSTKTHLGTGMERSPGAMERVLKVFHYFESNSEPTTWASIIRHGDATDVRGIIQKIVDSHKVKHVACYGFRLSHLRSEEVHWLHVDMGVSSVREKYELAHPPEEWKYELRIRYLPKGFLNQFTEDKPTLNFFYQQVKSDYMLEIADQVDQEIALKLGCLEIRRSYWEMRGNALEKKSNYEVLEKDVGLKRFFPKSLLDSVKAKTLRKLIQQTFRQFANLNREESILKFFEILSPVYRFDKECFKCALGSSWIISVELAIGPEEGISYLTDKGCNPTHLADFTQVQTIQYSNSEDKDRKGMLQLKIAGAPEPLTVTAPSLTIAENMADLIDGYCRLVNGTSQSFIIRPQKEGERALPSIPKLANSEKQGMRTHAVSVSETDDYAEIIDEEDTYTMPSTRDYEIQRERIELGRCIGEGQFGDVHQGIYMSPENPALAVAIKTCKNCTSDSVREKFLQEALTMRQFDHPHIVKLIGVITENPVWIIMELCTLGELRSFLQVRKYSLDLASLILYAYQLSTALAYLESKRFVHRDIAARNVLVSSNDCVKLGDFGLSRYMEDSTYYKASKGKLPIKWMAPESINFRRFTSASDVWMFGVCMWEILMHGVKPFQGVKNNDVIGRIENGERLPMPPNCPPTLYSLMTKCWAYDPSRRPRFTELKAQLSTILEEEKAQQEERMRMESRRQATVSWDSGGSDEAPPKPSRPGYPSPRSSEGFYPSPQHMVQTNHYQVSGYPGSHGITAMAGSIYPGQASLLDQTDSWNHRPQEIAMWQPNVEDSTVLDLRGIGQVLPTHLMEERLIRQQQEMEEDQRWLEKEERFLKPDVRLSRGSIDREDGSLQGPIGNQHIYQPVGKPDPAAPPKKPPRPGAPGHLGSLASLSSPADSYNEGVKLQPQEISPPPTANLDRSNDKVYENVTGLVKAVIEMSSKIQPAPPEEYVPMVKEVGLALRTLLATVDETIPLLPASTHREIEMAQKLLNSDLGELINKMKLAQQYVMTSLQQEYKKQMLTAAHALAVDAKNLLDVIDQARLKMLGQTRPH
UniProt P23458, sequence (whole entry, looked up): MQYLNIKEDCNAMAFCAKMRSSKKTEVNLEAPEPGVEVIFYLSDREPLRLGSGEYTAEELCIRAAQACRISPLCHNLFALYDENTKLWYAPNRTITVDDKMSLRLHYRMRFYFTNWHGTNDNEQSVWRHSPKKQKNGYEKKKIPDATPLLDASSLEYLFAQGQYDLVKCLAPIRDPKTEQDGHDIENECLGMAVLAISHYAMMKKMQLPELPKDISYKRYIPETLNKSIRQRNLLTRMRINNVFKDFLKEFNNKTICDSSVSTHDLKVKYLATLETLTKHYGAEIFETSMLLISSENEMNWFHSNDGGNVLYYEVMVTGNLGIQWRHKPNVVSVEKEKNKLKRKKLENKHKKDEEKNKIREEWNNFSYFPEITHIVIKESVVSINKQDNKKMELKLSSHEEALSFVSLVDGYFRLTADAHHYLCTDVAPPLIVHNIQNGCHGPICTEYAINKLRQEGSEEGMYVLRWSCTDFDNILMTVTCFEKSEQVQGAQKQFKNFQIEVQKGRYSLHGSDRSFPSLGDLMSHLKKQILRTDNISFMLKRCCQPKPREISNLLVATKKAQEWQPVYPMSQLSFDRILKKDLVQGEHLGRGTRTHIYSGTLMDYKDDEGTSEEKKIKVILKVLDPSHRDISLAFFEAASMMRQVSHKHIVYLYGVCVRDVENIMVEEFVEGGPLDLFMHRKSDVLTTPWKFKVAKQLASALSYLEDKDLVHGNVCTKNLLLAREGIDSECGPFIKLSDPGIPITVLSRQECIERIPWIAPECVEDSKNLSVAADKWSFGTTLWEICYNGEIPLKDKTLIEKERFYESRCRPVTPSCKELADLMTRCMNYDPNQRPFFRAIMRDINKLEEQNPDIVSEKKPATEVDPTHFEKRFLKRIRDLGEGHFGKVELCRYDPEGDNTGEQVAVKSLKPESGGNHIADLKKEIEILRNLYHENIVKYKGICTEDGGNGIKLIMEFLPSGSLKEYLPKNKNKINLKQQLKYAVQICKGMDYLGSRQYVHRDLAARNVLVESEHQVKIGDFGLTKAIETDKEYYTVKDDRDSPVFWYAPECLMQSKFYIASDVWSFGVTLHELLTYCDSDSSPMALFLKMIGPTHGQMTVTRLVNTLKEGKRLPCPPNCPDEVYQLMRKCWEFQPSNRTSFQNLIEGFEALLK
UniProt O00506, sequence (whole entry, looked up): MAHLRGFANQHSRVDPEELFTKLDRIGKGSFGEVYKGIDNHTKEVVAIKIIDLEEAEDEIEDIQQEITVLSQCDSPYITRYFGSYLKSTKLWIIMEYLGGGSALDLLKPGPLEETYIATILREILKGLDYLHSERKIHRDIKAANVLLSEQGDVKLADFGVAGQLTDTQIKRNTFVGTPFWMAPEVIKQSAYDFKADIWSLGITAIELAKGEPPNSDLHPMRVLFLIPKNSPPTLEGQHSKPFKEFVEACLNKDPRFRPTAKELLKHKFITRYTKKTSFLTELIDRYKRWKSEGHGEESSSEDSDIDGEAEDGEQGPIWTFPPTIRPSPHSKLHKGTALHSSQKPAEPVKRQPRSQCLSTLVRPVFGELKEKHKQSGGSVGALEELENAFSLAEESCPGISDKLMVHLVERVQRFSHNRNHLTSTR
UniProt Q8WU08, sequence (whole entry, looked up): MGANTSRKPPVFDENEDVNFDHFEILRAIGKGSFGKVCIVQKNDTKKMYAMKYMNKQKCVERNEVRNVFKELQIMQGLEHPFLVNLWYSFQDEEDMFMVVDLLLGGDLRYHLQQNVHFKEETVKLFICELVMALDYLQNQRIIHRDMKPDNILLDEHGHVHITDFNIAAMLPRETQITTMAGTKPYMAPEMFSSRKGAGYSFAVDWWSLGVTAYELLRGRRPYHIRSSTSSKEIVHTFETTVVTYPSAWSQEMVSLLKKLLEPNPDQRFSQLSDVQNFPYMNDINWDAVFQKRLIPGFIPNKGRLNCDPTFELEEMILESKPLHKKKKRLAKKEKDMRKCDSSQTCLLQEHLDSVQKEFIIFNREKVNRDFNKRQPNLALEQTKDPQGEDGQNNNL
UniProt P54764, sequence (whole entry, looked up): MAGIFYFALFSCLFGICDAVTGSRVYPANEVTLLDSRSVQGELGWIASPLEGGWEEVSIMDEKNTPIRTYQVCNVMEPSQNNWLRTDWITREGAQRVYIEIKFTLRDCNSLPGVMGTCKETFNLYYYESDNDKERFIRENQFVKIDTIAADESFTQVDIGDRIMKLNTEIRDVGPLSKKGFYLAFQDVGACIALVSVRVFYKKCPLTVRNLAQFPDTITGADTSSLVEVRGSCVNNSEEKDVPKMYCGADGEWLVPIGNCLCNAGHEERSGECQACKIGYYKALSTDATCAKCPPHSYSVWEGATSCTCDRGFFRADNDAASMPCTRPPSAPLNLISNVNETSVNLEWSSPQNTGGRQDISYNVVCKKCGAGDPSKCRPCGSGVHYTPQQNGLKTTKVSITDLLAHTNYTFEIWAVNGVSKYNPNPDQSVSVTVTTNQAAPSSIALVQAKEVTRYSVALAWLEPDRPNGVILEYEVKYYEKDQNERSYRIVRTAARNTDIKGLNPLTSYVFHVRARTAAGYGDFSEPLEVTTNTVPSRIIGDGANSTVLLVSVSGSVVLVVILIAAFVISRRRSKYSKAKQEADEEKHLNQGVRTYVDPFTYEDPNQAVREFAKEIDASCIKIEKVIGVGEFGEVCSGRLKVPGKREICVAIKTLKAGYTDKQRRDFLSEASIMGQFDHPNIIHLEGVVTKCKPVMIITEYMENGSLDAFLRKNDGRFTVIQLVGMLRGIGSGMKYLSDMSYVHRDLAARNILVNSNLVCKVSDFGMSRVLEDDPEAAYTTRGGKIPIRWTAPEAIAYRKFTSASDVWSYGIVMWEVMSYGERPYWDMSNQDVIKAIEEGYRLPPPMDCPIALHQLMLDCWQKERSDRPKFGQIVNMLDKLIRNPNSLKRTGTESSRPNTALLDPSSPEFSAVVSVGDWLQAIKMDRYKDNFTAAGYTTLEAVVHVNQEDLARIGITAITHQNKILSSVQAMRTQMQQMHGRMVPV

Series 1
Cell line: HaCaT
Tested at: 100 µM
Time: 36 h
Quantity: viability
CO[C@H]1C[C@H](O[C@H]2[C@H](C)O[C@@H](O[C@@H]3/C(C)=C/C[C@@H]4C[C@@H](C[C@]5(C=C[C@H](C)[C@@H](C6CCCCC6)O5)O4)OC(=O)[C@@H]4C=C(C)[C@@H](O)[C@H]5OC/C(=C\C=C\[C@@H]3C)[C@]54O)C[C@@H]2OC)O[C@@H](C)[C@@H]1O: 11.8%
Cc1cccc(CN2CCN(C(c3ccccc3)c3ccc(Cl)cc3)CC2)c1 (centres unmarked): 66.8%
O=C(O)c1ccccc1C(=O)Nc1ccc(S(=O)(=O)Nc2nccs2)cc1: 96.1%
Cc1cnc(C(=O)N[C@H]2CCCCC/C=C\[C@@H]3C[C@@]3(C(=O)NS(=O)(=O)C3CC3)NC(=O)[C@@H]3C[C@@H](Oc4nc5ccccc5c5ccccc45)CN3C2=O)cn1: 5.75%
O=C(Nc1ncc([N+](=O)[O-])s1)c1ccccc1O: 24.6%

Series 2
Structure (SMILES): Cn1cc(Cl)c2c(Oc3c(F)cc(Nc4cc(Cl)nc(N)n4)cc3F)ccnc21
Effect on: cell-free assay
Method: competition with immobilised ligand
Tested at: 0.1 µM
Quantity: remaining binding
Ephrin type-A receptor 4 (EPHA4, Homo sapiens, UniProt P54764): 100%
Receptor tyrosine-protein kinase erbB-3 (ERBB3, Homo sapiens, UniProt P21860): 75%
Tyrosine-protein kinase JAK1, JH2 (JAK1, Homo sapiens, UniProt P23458): 83%
Mitogen-activated protein kinase kinase kinase kinase 1 (MAP4K1, Homo sapiens, UniProt Q92918): 82%
Serine/threonine-protein kinase 25 (STK25, Homo sapiens, UniProt O00506): 100%
Focal adhesion kinase 1 (PTK2, Homo sapiens, UniProt Q05397): 100%
Serine/threonine-protein kinase 32A (STK32A, Homo sapiens, UniProt Q8WU08): 89%
5'-AMP-activated protein kinase catalytic subunit alpha-2 (PRKAA2, Homo sapiens, UniProt P54646): 97%

Series 3
Host: mouse
Medium: microsomes or S9
Tested at: 2 µM
Time: 0.5 h
Quantity: remaining compound
Cc1ccc(N2N3C(=O)OC4(C)CCC(C2(C)C)C34C)cc1 (centres unmarked): 0.244%
CC(=O)c1c(NC2CCCc3ccccc32)[nH]c2c(-c3ccccc3)cccc2c1=O (centres unmarked): > 99%
CN(C(=O)c1c[nH]nn1)C1c2ccccc2-c2ccccc21: 90.6%
COc1cc(Br)c(/C=C2\Oc3ccccc3C2O)cc1OC (centres unmarked): > 99.9%
CCOC(=O)c1ccc(NC(=O)N(Cc2ccc3c(c2)OCO3)C2CCN(CC)CC2)cc1: 50.3%
Cn1cc(C(NC(=O)c2cc3sccc3[nH]2)[C@H]2C[C@@H](O)C2)cn1 (some centres unmarked): 74.5%

Series 4
Target: Serine/threonine-protein kinase VRK1 (VRK1, Homo sapiens, UniProt Q99986)
Effect on: enzyme activity
Action: inhibitor
Tested at: 0.5 µM
Baseline: control
Quantity: remaining activity
Target sequence (Q99986 1-396): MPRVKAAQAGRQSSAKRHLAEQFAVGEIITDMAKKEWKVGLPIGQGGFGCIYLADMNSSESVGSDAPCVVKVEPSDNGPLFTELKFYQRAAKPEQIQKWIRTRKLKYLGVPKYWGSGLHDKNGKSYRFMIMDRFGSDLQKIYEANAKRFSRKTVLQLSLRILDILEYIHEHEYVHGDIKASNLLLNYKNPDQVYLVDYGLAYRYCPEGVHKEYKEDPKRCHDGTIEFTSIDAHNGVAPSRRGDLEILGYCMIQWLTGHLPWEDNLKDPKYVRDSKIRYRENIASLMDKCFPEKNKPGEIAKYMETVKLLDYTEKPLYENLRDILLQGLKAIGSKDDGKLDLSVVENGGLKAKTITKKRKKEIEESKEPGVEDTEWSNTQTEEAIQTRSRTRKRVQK
COc1ccc(C(=O)Nc2sc3c(c2C(N)=O)CCCC3)cc1OC: 95.3%
COc1cc2nccc(Oc3ccc(NC(=S)NC(=O)c4ccccc4C)cc3)c2cc1OC: 96.3%
Cc1ccc(Nc2nccc(N(C)c3ccc4c(C)n(C)nc4c3)n2)cc1S(N)(=O)=O: 100%
O=C1NC(=O)C(c2cn(CCCn3ccnc3)c3ccccc23)=C1Nc1ccccc1: 98.7%
O=C1NC(=O)C(c2cn(CCCO)c3ncccc23)=C1c1cnccn1: 86.4%
Cc1nc(-c2ccccc2)c(-c2ccncc2)o1: 98.5%
Nc1[nH]nc2nc3ccccc3nc12: 103%
O=c1c2ccccc2[nH]c(=S)n1CCN1CCC(=C(c2ccc(F)cc2)c2ccc(F)cc2)CC1: 95.9%
Cc1ccc(NC(=O)c2ccc(CN3CCN(C)CC3)cc2)cc1Nc1nc(-c2cccnc2)cs1: 97.4%
O=S(=O)(c1cccc2cnccc12)N1CCCNCC1: 87.6%
NCCNc1ncc(C(N)=O)c(Nc2cccc(C(F)(F)F)c2)n1: 96.8%
OCC(O)CCON=C1C(c2c(O)[nH]c3ccccc23)=Nc2ccccc21 (centres unmarked): 88.3%
O=C(O)c1ccc2c3c1cccc3c(=O)n1c3ccccc3nc21: 103%
COc1ccc(CNC(=O)Nc2ncc([N+](=O)[O-])s2)cc1: 95%
C#Cc1cccc(Nc2ncnc3cc(OCCOC)c(OCCOC)cc23)c1: 103%
Cn1c2ccccc2c2c3c(c4c5ccccc5n(CCC#N)c4c21)CNC3=O: 84%

Repeated from above (series 4):
Cn1c2ccccc2c2c3c(c4c5ccccc5n(CCC#N)c4c21)CNC3=O: 84%
Cc1ccc(Nc2nccc(N(C)c3ccc4c(C)n(C)nc4c3)n2)cc1S(N)(=O)=O: 100%
OCC(O)CCON=C1C(c2c(O)[nH]c3ccccc23)=Nc2ccccc21 (centres unmarked): 88.3%
